Measurements gathered from unrelated publications.
Each line is one published result; not all experiments were run side by side. “And” joins repeats or separate records; there may be more than shown. Numbers after ± are the reported error.
VIM-2: Metallo-beta-lactamase VIM-2 (VIM-2, Escherichia coli, UniProt Q5U7L7)
cyp121: Mycocyclosin synthase (cyp121, Mycobacterium tuberculosis, UniProt P9WPP7)
Leucine--tRNA ligase: Leucine--tRNA ligase (Staphylococcus aureus, UniProt Q2FXH2)
aacA4: Aminoglycoside N(6')-acetyltransferase type 1 (aacA4, Klebsiella pneumoniae, UniProt P19650)
Inosine-5'-monophosphate dehydrogenase: Inosine-5'-monophosphate dehydrogenase (Cryptosporidium parvum, UniProt Q8T6T2)

Sequences of proteins named here, by UniProt entry; tags and fusion partners are left off. Residues count along the entry.
UniProt P9WPP7, whole entry: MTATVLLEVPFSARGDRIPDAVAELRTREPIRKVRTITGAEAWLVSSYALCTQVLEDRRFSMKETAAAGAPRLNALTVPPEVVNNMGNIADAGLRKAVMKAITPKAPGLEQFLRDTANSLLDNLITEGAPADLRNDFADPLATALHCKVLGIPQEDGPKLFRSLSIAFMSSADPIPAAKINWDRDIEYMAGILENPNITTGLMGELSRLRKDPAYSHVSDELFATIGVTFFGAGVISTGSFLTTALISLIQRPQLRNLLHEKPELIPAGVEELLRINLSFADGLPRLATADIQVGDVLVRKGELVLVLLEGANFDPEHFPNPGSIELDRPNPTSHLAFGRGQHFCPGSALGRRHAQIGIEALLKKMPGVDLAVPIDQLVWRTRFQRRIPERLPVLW
UniProt Q2FXH2, whole entry: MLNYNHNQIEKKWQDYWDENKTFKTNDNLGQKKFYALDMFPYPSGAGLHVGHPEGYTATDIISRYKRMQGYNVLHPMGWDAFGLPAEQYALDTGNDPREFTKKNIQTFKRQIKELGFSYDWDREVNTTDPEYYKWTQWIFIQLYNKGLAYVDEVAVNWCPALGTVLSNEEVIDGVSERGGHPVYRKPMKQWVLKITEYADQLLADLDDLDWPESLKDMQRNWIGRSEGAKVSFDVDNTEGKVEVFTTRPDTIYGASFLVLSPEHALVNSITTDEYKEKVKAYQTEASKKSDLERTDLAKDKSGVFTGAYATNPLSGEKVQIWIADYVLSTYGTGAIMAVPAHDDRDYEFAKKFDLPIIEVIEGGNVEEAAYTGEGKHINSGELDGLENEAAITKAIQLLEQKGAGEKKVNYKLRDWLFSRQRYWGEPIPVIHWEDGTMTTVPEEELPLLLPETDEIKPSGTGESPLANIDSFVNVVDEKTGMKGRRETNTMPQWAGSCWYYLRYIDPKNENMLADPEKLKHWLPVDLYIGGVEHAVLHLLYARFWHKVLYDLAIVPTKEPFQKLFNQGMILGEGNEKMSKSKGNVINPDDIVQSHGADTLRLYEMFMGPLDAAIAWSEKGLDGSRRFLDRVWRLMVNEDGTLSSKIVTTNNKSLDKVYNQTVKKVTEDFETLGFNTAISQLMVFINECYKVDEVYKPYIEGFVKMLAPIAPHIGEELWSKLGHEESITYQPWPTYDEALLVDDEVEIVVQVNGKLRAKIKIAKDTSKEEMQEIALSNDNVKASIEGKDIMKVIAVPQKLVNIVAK
UniProt P19650, whole entry: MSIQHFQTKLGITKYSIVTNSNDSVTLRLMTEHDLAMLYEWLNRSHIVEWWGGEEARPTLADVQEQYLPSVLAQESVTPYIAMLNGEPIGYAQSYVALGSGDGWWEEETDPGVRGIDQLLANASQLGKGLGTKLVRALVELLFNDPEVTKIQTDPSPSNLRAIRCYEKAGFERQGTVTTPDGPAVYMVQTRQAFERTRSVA
UniProt Q8T6T2, whole entry: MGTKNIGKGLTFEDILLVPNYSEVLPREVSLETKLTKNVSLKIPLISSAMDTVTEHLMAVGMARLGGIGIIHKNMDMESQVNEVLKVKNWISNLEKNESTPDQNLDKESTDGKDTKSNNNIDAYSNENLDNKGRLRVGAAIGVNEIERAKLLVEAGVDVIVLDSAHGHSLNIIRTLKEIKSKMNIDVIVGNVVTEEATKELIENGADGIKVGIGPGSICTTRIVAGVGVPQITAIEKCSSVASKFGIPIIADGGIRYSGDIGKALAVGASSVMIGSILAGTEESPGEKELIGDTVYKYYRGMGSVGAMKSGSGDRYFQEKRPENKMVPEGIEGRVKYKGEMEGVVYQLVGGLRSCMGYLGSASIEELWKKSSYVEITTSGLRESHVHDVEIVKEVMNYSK
UniProt Q8I273, 168-734 limits assumed: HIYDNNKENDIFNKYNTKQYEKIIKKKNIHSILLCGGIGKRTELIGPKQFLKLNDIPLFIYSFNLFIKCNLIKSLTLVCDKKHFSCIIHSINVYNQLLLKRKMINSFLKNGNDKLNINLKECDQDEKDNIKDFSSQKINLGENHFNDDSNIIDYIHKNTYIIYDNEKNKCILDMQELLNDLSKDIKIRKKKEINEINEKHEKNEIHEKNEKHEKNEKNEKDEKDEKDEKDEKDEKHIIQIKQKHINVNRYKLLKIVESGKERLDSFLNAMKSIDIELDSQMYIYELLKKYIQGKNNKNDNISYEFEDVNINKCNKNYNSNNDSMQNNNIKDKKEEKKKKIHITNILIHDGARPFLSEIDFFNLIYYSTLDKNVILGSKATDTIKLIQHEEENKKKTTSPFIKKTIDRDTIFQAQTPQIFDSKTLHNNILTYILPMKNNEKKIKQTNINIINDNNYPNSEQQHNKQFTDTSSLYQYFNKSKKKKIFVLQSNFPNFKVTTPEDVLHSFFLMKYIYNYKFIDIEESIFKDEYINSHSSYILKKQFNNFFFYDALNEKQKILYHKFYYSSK
UniProt P26918, whole entry, looked up: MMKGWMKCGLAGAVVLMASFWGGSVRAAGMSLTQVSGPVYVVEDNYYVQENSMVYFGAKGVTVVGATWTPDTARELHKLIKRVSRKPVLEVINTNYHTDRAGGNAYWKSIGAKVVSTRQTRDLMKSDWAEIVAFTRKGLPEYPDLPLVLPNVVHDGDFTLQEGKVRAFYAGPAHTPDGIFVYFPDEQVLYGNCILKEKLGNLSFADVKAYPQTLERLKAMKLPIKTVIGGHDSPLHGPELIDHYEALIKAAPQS
UniProt P00533, 25-1210 T790M limits assumed: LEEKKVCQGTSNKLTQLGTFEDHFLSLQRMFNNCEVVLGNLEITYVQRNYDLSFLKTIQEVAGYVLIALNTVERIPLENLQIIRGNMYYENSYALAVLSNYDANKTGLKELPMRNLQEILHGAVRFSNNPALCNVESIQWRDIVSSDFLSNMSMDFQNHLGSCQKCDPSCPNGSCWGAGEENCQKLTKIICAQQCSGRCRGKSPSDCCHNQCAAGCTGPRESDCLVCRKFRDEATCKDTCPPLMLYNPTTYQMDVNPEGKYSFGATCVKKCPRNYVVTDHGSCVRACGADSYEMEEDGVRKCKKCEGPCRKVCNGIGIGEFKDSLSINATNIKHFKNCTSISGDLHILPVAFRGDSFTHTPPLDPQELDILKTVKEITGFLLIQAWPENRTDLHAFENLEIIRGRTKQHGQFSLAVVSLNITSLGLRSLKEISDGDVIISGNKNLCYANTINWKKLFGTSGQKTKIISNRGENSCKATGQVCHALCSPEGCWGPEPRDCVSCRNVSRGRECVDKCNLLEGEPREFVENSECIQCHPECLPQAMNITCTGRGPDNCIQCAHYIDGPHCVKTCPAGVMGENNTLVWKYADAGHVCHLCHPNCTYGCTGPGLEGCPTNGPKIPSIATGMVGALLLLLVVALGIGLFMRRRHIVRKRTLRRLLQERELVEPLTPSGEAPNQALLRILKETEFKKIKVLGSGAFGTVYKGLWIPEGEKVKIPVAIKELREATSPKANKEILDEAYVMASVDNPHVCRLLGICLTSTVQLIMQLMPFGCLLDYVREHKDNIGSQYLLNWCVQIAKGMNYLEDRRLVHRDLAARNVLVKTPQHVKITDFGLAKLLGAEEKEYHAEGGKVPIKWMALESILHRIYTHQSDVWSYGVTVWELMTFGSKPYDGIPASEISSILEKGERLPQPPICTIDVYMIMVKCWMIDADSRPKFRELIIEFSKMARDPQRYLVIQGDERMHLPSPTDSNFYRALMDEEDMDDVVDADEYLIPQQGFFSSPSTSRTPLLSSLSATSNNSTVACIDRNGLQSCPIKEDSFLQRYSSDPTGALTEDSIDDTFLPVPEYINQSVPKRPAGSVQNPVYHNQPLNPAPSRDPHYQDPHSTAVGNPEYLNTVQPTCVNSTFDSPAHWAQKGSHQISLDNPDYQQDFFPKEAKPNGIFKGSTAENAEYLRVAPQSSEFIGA
UniProt A3FQ16, 1-538: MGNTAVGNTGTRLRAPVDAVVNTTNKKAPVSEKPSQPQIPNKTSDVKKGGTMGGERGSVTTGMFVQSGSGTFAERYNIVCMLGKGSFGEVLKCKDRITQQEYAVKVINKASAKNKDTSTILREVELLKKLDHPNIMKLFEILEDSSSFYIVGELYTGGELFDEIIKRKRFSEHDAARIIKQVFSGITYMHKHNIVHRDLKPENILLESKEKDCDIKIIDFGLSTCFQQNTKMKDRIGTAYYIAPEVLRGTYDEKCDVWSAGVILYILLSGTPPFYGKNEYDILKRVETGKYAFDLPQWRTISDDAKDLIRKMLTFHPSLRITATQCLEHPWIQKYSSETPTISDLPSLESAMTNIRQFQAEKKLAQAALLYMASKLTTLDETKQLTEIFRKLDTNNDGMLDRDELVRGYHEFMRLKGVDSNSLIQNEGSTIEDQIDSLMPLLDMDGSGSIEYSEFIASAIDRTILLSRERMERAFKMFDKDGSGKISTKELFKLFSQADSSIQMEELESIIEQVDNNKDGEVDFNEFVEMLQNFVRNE
UniProt Q7KQK5, 83-531 limits assumed: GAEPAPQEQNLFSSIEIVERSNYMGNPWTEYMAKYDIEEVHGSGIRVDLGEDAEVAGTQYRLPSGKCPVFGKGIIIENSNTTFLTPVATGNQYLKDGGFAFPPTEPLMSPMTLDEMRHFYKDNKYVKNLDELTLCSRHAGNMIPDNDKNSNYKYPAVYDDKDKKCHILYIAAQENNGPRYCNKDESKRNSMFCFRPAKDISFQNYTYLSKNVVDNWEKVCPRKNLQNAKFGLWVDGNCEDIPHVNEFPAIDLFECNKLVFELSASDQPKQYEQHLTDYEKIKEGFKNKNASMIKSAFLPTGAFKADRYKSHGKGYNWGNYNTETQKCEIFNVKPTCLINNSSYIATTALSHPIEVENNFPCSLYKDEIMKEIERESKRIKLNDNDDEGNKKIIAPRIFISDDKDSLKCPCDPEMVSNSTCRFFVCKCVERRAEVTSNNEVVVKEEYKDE
UniProt P9WNX1, whole entry: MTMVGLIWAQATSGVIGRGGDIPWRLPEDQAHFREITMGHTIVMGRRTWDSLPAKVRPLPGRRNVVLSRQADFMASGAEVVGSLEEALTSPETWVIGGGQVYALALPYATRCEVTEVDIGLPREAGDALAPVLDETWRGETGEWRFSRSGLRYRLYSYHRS
UniProt P19784, whole entry: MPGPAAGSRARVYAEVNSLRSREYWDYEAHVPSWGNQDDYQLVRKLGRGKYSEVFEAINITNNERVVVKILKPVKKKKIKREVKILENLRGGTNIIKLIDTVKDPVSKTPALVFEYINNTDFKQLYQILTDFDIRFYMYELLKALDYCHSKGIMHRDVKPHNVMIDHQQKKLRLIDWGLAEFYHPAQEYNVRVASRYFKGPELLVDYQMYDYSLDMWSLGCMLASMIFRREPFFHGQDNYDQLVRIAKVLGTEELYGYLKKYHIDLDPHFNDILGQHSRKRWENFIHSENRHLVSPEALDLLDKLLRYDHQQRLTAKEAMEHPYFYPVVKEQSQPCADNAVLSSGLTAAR
UniProt Q9UM07, whole entry: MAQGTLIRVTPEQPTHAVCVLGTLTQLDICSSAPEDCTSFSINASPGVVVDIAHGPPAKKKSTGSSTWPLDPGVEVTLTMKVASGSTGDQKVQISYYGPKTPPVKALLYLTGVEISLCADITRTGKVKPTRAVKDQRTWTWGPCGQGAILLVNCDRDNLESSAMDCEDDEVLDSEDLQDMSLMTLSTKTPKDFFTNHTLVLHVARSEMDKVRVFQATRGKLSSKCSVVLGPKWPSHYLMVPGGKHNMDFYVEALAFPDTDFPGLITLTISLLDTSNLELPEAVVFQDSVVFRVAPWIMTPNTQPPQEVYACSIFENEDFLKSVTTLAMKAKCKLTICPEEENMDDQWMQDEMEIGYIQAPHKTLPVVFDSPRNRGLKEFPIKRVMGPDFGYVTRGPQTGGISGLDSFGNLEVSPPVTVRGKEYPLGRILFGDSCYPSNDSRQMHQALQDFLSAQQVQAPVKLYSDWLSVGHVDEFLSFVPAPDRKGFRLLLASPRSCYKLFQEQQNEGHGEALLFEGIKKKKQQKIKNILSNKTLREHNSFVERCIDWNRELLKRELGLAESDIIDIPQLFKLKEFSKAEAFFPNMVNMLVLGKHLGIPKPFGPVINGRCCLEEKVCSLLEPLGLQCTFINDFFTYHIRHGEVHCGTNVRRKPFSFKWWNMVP
UniProt P43235, whole entry, looked up: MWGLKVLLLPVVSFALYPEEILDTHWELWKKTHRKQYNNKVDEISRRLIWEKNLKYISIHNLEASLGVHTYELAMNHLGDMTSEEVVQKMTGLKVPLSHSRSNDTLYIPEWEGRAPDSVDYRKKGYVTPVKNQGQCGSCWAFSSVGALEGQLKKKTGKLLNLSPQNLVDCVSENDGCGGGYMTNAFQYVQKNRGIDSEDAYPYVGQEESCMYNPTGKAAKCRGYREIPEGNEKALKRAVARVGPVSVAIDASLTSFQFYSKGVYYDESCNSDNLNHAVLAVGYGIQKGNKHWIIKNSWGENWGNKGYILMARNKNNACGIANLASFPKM
UniProt P05067, 672-713 limits assumed: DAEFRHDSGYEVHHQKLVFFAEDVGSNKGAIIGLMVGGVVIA
UniProt Q9H9B1, 1126-1243 limits assumed: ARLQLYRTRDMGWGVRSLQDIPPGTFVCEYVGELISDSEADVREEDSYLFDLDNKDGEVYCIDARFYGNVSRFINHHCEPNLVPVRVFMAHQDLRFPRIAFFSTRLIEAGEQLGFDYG
UniProt Q8IKV6, 2021-2059 partner limits assumed: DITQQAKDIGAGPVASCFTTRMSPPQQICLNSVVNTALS

Structure (SMILES)	target	assay	test system	setting	endpoint	result
CC(C)OCc1nn[nH]c1CNS(=O)(=O)c1ccc(Cl)cc1	VIM-2	enzyme activity, inhibitor		added: nitrocefin	IC50	100 ± 100 nM
C1=C(CCNCc2ccccc2)CCCC1	Phenylalanine--tRNA ligase, chloroplastic/mitochondrial (Arabidopsis thaliana, UniProt Q94K73)	phenylalanine activation, inhibitor			IC50	> 300 µg/mL
CNC(=O)[C@@H]1Cc2c([nH]c3ccccc23)[C@@H](c2ccc(F)cc2Cl)N1	2-C-methyl-D-erythritol 4-phosphate cytidylyltransferase (Plasmodium falciparum, UniProt Q8I273)	enzyme activity, pyrophosphate fluorimetric		added: 60 nM enzyme	IC50	278 ± 27 nM
CC(C)(C)[Si](OCCC(c1ccc(-c2ccc(F)cc2)cc1)n1ccnc1)(c1ccccc1)c1ccccc1 (stereo not shown)	cyp121	binding			Kd	3100 ± 730 nM
COC(C)(C)Cn1nc(-c2ccc3cc(OC4CC4)ccc3c2)c2c(N)ncnc21	CDPK1 (Toxoplasma gondii, UniProt Q9BJF5)	enzyme activity, inhibitor, Kinase-Glo		added: syntide-2	IC50	1660 nM
C[C@H](CS)C(=O)N[C@H](Cc1c[nH]c2ccccc12)C(=O)O	Metallo-beta-lactamase type 2 (Aeromonas hydrophila, UniProt P26918)	enzyme activity, inhibitor			IC50	~400000 nM
CC(Oc1ccccc1)C(=O)Nc1ccc(Cl)cc1 (stereo not shown)	Inosine-5'-monophosphate dehydrogenase (guaB, Helicobacter pylori, UniProt P56088)	enzyme activity, inhibitor		corrected for open enzyme conformation	IC50	1100 nM
CCCCOCc1nn[nH]c1CNS(=O)(=O)c1ccc(Cl)cc1	VIM-2	enzyme activity, inhibitor		added: nitrocefin	IC50	18900 ± 6000 nM
C=CC(=O)Nc1cc(-n2c(=O)ccc3cnc4ccc(-c5cn[nH]c5)cc4c32)ccc1C	EGFR (Homo sapiens, UniProt P00533, T790M)	kinase activity, inhibitor			IC50	137 nM
NCc1ccc(-c2ncc(OCC3CCNCC3)nc2-c2ccc(-c3cn[nH]c3)cc2)cc1	Genome polyprotein, NS2B-NS3 protease (West Nile virus, UniProt P06935)	enzyme activity, inhibitor		NS2B-NS3 protease	IC50	120 ± 20 nM
C=CC(=O)Nc1cc(-c2cn(C3CCCC3)c3ncnc(N)c23)ccc1Oc1ccccc1	ERBB3 (Homo sapiens, UniProt P21860)	ATP-site binding, LanthaScreen TR-FRET		3 h	IC50	286 nM
COC(C)(C)Cn1cc(-c2ccc3cc(OC4CC4)ccc3c2)c2c(N)ncnc21	Calmodulin-domain protein kinase 1, putative (Cryptosporidium parvum, UniProt A3FQ16)	enzyme activity, inhibitor, Kinase-Glo		added: syntide-2	IC50	30 nM
CCCOC(=O)N[C@H](C(=O)NCCCN[C@H](C(N)=O)[C@H](O[C@@H]1O[C@H](CN)[C@@H](O)[C@H]1OC)[C@H]1O[C@@H](n2ccc(=O)[nH]c2=O)[C@H](O)[C@@H]1O)[C@@H](OC(=O)CCCCCCCCCCCCN(O)C(=N)N)C(C)C	UDP-N-acetylglucosamine--dolichyl-phosphate N-acetylglucosaminephosphotransferase (Homo sapiens, UniProt Q9H3H5)	enzyme activity, inhibitor			IC50	250 ± 95 nM
COCCCn1nc(-c2ccc(CC(=O)Nc3cccc(F)c3)cc2)c2c(N)ncnc21	RET (Homo sapiens, UniProt P07949)	inhibitor			IC50	250 ± 70 nM
CC[C@H](C)[C@H](NC(=O)[C@H](Cc1cnc[nH]1)NC(=O)[C@H](CCSC)NC(=O)[C@H](CCCNC(=N)N)NC(=O)[C@H](CO)NC(=O)CNC(=O)[C@H](Cc1ccccc1)NC(=O)[C@H](CCCCN)NC(=O)[C@H](CO)NC(=O)[C@H](Cc1ccccc1)NC(=O)[C@H](CC(C)C)NC(=O)[C@@H]1CCCN1C(=O)[C@H](CC(C)C)NC(=O)[C@H](Cc1ccccc1)NC(=O)[C@H](CCC(=O)O)NC(=O)[C@H](C)NC(=O)[C@H](Cc1ccccc1)NC(=O)[C@@H](N)C(C)C)C(=O)N[C@@H](CC(C)C)C(=O)N[C@@H](CCCCN)C(=O)O	Apical membrane antigen 1, with RON2 peptide (Plasmodium falciparum, UniProt Q7KQK5)	AMA1-RON2L binding, inhibitor, AlphaScreen		AMA1 3D7 allele	IC50	~700 nM
Nc1nc(N)c2c(Cl)c(CNc3ccc(C(=O)O)cc3)ccc2n1	folA (Mycobacterium tuberculosis, UniProt P9WNX1)	enzyme activity, inhibitor		Mycobacterium tuberculosis enzyme	IC50	8.7 nM
[2H]c1c([2H])c(S(=O)(=O)N2CCC([2H])(C(=O)Nc3ccc4cc(C(=O)O)ccc4c3)CC2)c(C([2H])([2H])[2H])c([2H])c1C([2H])([2H])[2H]	FAAH (Homo sapiens, UniProt O00519)			pH 8, 37 °C, added: OMP substrate 50 µM	IC50	6800 nM

Structure (SMILES)	target	assay	test system	setting	endpoint	result
O=S(=O)(Nc1ccc2c(c1)B(O)OC2)c1ccccc1	Leucine--tRNA ligase				IC50	94000 ± 2000 nM
CCCC[C@H](CN)NC[C@@H]1CCCN1C[C@@H](CO)NC[C@@H](NCCc1ccc(-c2ccccc2)cc1)c1ccccc1	aacA4	acetyltransferase activity, inhibitor			IC50	12400 nM
CC(C)C[C@H](NC(=O)[C@H](Cc1ccccc1)C[C@@H](O)[C@H](Cc1ccccc1)NC(=O)OC(C)(C)C)C(=O)N[C@@H](Cc1ccc(C(=O)c2ccccc2)cc1)C(=O)NCCCCCNC(=O)CCCC[C@@H]1SC[C@@H]2NC(=O)N[C@@H]21	Presenilin-1, γ-secretase complex (PSEN1, Homo sapiens, UniProt P49768)	Aβ42 production	HeLa cell membranes	added: recombinant APP substrate	IC50	0.3 nM
C#CCOCCC(=O)N[C@H](Cc1ccccc1)C(=O)N[C@@H](Cc1ccccc1)C(=O)N[C@@H](CCCNC(=N)N)C(=O)CCl	Replicase polyprotein 1ab, main protease (rep, Severe acute respiratory syndrome coronavirus 2, UniProt P0DTD1)	enzyme activity, inhibitor		near enzyme concentration	IC50	20 ± 2 nM
O=S(=O)(NCc1[nH]nnc1CNC1CCCCC1)c1ccccc1	VIM-2	enzyme activity, inhibitor		approximate value	IC50	~100 nM
O=C(Cn1c(-c2cscn2)nc2ccccc21)Nc1ccc(Br)cc1	Inosine-5'-monophosphate dehydrogenase	enzyme activity, inhibitor, NADH fluorescence	recombinant enzyme		IC50	60 ± 30 nM
Cc1ccc(N(C)c2cc(N(C)C3CC3)n3ncc(C#N)c3n2)cc1NC(=O)C1CC1	CSNK2A2 (Homo sapiens, UniProt P19784)	inhibitor			IC50	> 10000 nM
N=C(CCl)NCCC[C@H](NC(=O)c1ccc(O)cc1)C(=O)NCc1ccccc1	PADI4 (Homo sapiens, UniProt Q9UM07)	enzyme activity, inhibitor		37 °C, 10 min preincubation, added: Z-Arg-AMC	IC50	836 ± 240 nM
CC1CCN(C(=O)n2ncc(C(O)(c3ccccc3)c3ccccc3)n2)CC1	Monoacylglycerol lipase-like protein (Plasmodium falciparum, UniProt Q8IJ22)	enzyme activity, inhibitor		added: 4-methylumbelliferyl octanoate 10 µM	IC50	15.4 nM
CC(C)CC(NC(=O)C1OC1C(=O)O)C(=O)NCCCCN=C(N)N (stereo not shown)	Cathepsin K (CTSK, Homo sapiens, UniProt P43235)	enzyme activity, inhibitor			IC50	1.45 nM
O=[N+]([O-])c1ccccc1S(=O)(=O)Nc1ccc2c(c1)B(O)OC2	Leucine--tRNA ligase				IC50	> 100000 nM
COc1cccc(Nc2ncc(Oc3cccc(N(C)C)c3)cn2)c1	Amyloid-beta precursor protein, Aβ42 with fibrinogen (APP, Homo sapiens, UniProt P05067)	AlphaLISA			IC50	6420 nM
CC(CCN[C@H](CN[C@H](CO)CN1CCC[C@H]1CN[C@H](CN)c1ccccc1)c1ccccc1)c1ccccc1 (stereo partly shown)	aacA4	acetyltransferase activity, inhibitor			IC50	2100 nM
CCC(c1ccc(-c2ccc(F)c(F)c2)cc1)n1ccnc1 (stereo not shown)	cyp121			racemate	Kd	≤ 6000 nM
O=C(Cn1c(-c2cscn2)nc2ccccc21)Nc1ccc2ccccc2c1	Inosine-5'-monophosphate dehydrogenase	enzyme activity, inhibitor, NADH fluorescence	recombinant enzyme		IC50	7.4 nM and 7 nM
[N-]=[N+]=CC(=O)[C@H](Cc1cccc([N+](=O)[O-])c1)NC(=O)OCc1ccccc1	Neutrophil elastase (ELANE, Homo sapiens, UniProt P08246)	enzyme activity, inhibitor		added: MeOSuc-AAPV-AMC substrate	IC50	> 40000 nM
COc1cc2c(N(C)C)nc(NCCCN(C)C)nc2cc1OCCCCCN	Histone-lysine N-methyltransferase EHMT1, SET domain (EHMT1, Homo sapiens, UniProt Q9H9B1)	methyltransferase activity, inhibitor		5 min, 30 °C, added: H3 peptide 5 µM, SAM 100 µM	IC50	75000 nM

Repeated from above:
Structure (SMILES)	target	assay	test system	setting	endpoint	result
C1=C(CCNCc2ccccc2)CCCC1	Phenylalanine--tRNA ligase, chloroplastic/mitochondrial (Arabidopsis thaliana, UniProt Q94K73)	phenylalanine activation, inhibitor			IC50	> 300 µg/mL
CNC(=O)[C@@H]1Cc2c([nH]c3ccccc23)[C@@H](c2ccc(F)cc2Cl)N1	2-C-methyl-D-erythritol 4-phosphate cytidylyltransferase (Plasmodium falciparum, UniProt Q8I273)	enzyme activity, pyrophosphate fluorimetric		added: 60 nM enzyme	IC50	278 ± 27 nM
CC(C)(C)[Si](OCCC(c1ccc(-c2ccc(F)cc2)cc1)n1ccnc1)(c1ccccc1)c1ccccc1 (stereo not shown)	cyp121	binding			Kd	3100 ± 730 nM
COC(C)(C)Cn1nc(-c2ccc3cc(OC4CC4)ccc3c2)c2c(N)ncnc21	CDPK1 (Toxoplasma gondii, UniProt Q9BJF5)	enzyme activity, inhibitor, Kinase-Glo		added: syntide-2	IC50	1660 nM
